# Experimental data gathered from unrelated publications.
# Each numbered part is a random draw from the data of one study; scales do not carry over between parts.

# Series 1 — method: RNA Bind-n-Seq; form: RNA; medium: in vitro; concentration: 200 nM; setting: whole 134-nt RNA, ends assumed; together with: 150 mM LiCl; baseline: input library; direction: higher = stronger binding; each molecule: 7-deaza-guanosine replaces G
# Target: Ras GTPase-activating protein-binding protein 1, full length (G3BP1, Homo sapiens, UniProt Q13283)
# Chain of UniProt Q13283 (whole entry, looked up): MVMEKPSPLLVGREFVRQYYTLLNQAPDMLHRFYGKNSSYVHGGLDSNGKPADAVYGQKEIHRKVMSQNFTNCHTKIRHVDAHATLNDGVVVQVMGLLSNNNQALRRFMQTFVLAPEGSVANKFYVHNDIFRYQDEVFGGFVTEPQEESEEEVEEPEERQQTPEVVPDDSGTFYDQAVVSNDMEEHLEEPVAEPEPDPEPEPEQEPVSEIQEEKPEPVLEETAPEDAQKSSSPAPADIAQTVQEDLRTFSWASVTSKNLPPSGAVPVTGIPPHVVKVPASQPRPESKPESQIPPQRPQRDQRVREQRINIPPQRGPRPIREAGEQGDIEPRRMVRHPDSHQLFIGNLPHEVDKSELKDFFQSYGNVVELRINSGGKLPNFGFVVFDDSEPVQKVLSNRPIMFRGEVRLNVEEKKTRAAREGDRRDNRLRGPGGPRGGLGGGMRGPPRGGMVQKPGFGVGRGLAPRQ
Strand,log2 enrichment
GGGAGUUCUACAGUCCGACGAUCAGUCCUGUGCUACACAUCGUAUGUACCGAAUCGGAAAAAGGUUUUUGGUUUUUUUGGAAAGUAUUAUGUUACGCCGUUCGGAUCUGCACUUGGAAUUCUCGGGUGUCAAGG,-2.6
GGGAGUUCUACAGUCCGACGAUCUCAAGUCCUGUGCUACACAUCGUAUGUACCGAAUCGGGGCCGGGGCCGGGGCCGGAAAGUAUUAUGUUACGCCGUUCGGAUCUGCACUUCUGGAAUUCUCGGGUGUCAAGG,-0.122
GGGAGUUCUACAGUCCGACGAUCACCAUGCAGGUGGGCAUCUUUGGGAAGUGGGGCAAGGGGGGGAUAGGGAGGGGGGUAACACUUUGGGAACAGGUGGUCGCAGGUCGUUUCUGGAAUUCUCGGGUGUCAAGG,-0.00607
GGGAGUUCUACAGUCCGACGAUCCCUCAAGUCCUGUGCUACACAUCGUAUGUACCGAAUCGGGGUGGUGGGGUGGGAAAGUAUUAUGUUACGCCGUUCGGAUCUGCACUUCCAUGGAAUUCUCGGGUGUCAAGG,-0.102
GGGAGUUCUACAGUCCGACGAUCUAAUUAUGUUUUAUUUUCUUUAAUUGCAGGACUUCAUAGACCUCACGUUGUCGAAGACUCAACGAAAGACUCCAACCGUUAUUCAUAAACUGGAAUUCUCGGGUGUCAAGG,0.318
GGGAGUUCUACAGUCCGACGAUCUGGCCCUGGUGGCAUGCGGGGAGGAAGAGGUGGCCUCAUCGAUCGUGGUGGUCCCGGUGGAAUGUUCAGAGGUGGCCGUGGUGGAGACAGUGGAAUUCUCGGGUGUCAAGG,0.26
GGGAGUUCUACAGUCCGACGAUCUCUUCCGUGACAUUUCAUUUGGGGAACAACUUUUCUCUUUACAGGCCCGAGUGACUAAGGGAUGUACCAUUGUUAAGCCUUUCAACCUGUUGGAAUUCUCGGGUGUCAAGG,1.69
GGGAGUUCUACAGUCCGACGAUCAAGUCCUGUGCUACACAUCGUAUGUACCGAAUCGGGAAAGGGUUUUUUUGGGUGGGAAAGUAUUAUGUUACGCCGUUCGGAUCUGCACUUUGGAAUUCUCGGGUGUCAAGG,-0.954

# Series 2 — method: protein-binding microarray; form: double-stranded DNA, one strand shown; medium: in vitro; concentration: 2540 nM top; setting: 60-bp whole probe; together with: salmon DNA 0.4 mg/ml; baseline: random background probes; direction: higher = stronger binding; constant ends, left off below: GCCTAGCAC … GTCTTGATTCGCTTGACGCTGCTG
# Target: Interferon regulatory factor 3, full length, phosphomimetic (IRF3, Homo sapiens, UniProt Q14653, residues 1-427, S386D/S396D/S398D/S402D/T404D/S405D)
# Construct (chain): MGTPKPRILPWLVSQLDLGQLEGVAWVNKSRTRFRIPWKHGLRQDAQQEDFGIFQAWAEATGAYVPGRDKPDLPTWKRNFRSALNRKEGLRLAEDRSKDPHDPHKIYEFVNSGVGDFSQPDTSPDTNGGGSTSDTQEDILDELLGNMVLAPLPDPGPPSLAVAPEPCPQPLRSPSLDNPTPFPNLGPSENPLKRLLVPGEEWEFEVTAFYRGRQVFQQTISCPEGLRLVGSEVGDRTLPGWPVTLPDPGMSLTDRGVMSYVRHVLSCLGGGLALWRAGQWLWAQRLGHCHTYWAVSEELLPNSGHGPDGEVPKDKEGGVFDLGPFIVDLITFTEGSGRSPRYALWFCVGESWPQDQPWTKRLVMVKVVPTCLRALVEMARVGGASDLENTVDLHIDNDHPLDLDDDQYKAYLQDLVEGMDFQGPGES
Strand,fitted relative affinity [z-score]
GACGAACTGGGGAATGGAGACGTGCTA,-0.154
TCAACTTTGCTCTGTGCGACTGTGCTA,-0.387
TTTCATTTTTTTTCATCATTGTGCTAG,4.48
TTAGGTTTCGACACTGGGTTGGTGCTA,2.39
GACGGTTCCGGTTTCGGGATGTGCTAG,6.05
ACCAAAATCAAGTCTGGGCTAGTGCTA,0.199
TTAGGTTTCGGTAGCGGTTAGTGCTAG,5.04
TTAGGACTGCTAGTGCTTTAGTGCTAG,-0.821

# Series 3 — method: universal PBM; form: double-stranded DNA, one strand shown; medium: in vitro; concentration: 600 nM; direction: higher = stronger binding
# Target: Sal-like protein 4, full length isoform A (SALL4, Homo sapiens, UniProt Q9UJQ4, residues 1-1053)
# Chain of UniProt Q9UJQ4 (whole entry, looked up): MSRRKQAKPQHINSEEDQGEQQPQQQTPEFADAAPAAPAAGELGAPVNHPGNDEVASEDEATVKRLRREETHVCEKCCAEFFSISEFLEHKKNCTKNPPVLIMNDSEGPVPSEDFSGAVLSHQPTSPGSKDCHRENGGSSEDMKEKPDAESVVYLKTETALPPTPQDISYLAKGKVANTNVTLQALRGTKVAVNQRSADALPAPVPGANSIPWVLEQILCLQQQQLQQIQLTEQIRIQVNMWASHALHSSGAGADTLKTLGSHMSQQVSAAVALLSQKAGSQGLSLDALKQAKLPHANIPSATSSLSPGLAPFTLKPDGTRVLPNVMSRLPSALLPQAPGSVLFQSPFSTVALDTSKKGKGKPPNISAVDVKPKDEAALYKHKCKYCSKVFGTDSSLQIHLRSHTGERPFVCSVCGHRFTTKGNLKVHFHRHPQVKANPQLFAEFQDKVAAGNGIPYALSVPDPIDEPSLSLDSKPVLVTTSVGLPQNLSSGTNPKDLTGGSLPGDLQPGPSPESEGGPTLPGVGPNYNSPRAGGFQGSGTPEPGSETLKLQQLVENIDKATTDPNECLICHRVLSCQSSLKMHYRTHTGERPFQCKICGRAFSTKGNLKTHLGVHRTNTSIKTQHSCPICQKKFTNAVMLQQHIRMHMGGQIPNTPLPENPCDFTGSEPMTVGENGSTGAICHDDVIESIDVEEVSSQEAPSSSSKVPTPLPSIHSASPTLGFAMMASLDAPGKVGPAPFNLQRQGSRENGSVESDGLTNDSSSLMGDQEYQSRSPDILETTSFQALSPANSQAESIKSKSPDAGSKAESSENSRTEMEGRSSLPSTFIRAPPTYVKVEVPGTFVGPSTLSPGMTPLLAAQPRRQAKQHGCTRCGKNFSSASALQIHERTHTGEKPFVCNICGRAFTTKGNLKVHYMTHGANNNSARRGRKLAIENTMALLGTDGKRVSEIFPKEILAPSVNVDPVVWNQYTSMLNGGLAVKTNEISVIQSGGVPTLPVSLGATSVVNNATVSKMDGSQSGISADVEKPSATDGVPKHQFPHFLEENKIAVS
# Setting: 8-mer, flanks averaged, mean of replicates
Strand,E-score
CCCGAACC,-0.346
AGCGGTTA,0.0307
AGATCTTC,-0.0337
GAAAGGCC,-0.214
GATTAGGC,-0.0795
CACCTGCC,-0.202
CTTATACC,0.173
ATTCTAAG,0.0216
AAGACATC,-0.028
ATCTAGTA,0.207
ACGAAAGC,-0.0873
AGCATGGA,-0.0685
ACAGAATC,-0.0359
GTCACCCA,-0.253

# Series 4 — method: protein binding microarray; form: double-stranded DNA, one strand shown; medium: in vitro; concentration: not given; baseline: not given; direction: higher = stronger binding
# Target: Histone acetyltransferase KAT6A, winged helix 2, GST fusion (KAT6A, Homo sapiens, UniProt Q92794, residues 85-181)
# Setting: 8-mer, flanks averaged, mean of 2 arrays, mostly near background
# Target sequence (chain): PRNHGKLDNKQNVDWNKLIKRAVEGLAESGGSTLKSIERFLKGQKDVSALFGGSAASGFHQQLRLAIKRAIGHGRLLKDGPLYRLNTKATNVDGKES
Strand,E-score
AATAAGCC,-0.0275
CCGTATAA,-0.0124
CCGCAGTA,0.0871
GTCGAAAA,0.0486
ACACCACA,0.0461
ACGAACCC,0.0839
ATAGAGGC,-0.00334
CTCGAGCC,0.0327
CAAGATTC,0.0289
AACATGAT,-0.0508
GTATTCAC,0.0673

# Repeated from above (series 3):
Strand,E-score
AGCATGGA,-0.0685
ACAGAATC,-0.0359
GTCACCCA,-0.253
